Measurements of several laboratories.
Compare with care: the assays were run in different laboratories. “And” joins repeats or separate records; there may be more than shown. Numbers after ± are the reported error.
lecA: PA-I galactophilic lectin (lecA, Pseudomonas aeruginosa, UniProt Q05097)
Chain of UniProt Q05097 (whole entry, looked up): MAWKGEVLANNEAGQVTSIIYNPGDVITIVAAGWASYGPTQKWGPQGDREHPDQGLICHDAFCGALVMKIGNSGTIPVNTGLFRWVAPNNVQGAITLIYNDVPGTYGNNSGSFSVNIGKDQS
Chain of UniProt P01024 (whole entry, looked up): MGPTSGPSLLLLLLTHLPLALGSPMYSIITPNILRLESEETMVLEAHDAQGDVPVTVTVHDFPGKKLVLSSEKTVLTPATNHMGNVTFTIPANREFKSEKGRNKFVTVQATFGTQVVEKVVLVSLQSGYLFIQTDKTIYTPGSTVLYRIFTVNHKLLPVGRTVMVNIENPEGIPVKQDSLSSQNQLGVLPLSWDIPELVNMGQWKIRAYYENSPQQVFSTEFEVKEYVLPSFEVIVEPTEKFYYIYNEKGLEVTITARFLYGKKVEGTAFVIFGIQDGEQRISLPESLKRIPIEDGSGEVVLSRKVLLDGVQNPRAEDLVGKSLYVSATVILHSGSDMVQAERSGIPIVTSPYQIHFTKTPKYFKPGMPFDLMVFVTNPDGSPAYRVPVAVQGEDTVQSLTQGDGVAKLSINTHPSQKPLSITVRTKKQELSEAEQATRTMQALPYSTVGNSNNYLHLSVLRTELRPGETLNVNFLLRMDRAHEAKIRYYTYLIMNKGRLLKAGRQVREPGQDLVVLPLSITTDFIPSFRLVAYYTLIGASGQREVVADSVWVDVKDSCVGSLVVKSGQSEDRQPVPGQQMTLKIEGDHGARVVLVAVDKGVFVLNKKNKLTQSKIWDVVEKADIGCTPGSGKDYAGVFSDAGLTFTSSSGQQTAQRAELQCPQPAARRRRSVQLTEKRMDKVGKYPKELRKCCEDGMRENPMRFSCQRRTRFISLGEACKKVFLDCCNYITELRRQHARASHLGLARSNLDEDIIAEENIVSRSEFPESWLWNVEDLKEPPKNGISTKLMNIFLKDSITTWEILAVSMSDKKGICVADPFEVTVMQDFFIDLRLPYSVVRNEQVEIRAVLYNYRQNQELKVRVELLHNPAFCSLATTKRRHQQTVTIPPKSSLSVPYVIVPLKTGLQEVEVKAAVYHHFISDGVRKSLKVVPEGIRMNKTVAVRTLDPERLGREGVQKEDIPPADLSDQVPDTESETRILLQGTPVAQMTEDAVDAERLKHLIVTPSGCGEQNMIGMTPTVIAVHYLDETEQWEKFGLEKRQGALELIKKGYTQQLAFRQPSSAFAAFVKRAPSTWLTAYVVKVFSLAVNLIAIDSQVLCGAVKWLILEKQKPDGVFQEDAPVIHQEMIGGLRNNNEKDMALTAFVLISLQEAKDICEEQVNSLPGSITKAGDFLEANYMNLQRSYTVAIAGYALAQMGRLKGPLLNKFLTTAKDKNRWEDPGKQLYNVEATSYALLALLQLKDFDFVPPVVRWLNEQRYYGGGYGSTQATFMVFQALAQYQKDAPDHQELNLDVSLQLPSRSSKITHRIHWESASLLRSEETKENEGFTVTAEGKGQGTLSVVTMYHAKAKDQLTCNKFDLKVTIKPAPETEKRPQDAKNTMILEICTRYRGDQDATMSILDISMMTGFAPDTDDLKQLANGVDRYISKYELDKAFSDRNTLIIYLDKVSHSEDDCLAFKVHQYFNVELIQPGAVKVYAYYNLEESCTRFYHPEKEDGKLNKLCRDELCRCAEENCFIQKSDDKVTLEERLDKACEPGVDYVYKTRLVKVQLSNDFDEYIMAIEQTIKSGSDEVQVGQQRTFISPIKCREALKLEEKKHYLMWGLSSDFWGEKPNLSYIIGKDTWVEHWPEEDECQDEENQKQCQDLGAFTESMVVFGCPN
Chain of UniProt Q9ULV8 (whole entry, looked up): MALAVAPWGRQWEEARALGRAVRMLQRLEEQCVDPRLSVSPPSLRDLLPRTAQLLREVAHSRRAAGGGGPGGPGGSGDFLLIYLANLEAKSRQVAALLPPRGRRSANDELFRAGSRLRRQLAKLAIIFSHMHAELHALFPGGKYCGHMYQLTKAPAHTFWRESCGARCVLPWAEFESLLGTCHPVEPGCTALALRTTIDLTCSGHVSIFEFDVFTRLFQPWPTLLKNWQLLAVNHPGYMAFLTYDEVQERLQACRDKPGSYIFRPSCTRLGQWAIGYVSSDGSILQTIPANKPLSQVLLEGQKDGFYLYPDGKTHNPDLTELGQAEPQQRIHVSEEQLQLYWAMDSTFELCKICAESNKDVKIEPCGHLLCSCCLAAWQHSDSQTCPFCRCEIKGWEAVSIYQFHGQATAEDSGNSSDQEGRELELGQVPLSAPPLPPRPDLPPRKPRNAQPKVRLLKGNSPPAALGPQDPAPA
Chain of UniProt P50395 (whole entry, looked up): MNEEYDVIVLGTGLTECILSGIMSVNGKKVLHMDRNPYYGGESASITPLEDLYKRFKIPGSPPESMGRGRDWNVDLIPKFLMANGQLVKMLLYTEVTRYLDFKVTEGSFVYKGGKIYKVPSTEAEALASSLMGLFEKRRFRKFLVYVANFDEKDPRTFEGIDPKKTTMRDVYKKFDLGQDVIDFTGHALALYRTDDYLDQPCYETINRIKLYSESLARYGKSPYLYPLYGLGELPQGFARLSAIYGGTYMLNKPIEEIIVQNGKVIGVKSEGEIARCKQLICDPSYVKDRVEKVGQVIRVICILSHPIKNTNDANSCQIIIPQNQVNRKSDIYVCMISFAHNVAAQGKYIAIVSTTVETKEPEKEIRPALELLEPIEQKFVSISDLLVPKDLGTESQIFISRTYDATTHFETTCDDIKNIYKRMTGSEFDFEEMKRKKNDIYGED
Chain of UniProt P62993 (whole entry, looked up): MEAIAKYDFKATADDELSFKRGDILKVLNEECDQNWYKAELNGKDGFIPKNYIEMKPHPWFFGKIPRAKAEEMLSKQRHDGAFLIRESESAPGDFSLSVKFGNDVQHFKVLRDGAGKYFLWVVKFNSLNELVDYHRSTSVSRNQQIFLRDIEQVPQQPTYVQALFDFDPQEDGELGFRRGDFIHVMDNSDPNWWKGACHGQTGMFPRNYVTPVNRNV
Chain of UniProt Q9Y294 (whole entry, looked up): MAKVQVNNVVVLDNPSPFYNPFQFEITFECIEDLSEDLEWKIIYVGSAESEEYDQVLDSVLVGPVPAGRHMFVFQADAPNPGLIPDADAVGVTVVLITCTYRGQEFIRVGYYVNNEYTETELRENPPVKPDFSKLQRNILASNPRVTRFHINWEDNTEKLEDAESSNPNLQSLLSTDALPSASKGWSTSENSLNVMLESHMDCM
Chain of UniProt P53341 (whole entry, looked up): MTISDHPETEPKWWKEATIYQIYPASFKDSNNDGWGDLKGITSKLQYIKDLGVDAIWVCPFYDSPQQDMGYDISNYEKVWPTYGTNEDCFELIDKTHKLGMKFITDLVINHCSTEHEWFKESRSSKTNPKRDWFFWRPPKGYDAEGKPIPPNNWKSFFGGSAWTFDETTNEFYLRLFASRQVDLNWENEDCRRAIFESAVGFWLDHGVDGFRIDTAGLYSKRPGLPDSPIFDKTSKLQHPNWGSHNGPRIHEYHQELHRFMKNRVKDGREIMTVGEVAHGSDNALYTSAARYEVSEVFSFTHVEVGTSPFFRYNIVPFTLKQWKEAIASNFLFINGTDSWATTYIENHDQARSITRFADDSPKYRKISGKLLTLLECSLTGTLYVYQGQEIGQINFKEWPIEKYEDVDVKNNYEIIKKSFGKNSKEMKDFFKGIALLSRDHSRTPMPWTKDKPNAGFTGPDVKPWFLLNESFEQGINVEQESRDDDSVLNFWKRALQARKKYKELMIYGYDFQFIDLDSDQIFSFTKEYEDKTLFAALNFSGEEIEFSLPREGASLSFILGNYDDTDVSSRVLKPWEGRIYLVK
Chain of UniProt Q9NXA8 (whole entry, looked up): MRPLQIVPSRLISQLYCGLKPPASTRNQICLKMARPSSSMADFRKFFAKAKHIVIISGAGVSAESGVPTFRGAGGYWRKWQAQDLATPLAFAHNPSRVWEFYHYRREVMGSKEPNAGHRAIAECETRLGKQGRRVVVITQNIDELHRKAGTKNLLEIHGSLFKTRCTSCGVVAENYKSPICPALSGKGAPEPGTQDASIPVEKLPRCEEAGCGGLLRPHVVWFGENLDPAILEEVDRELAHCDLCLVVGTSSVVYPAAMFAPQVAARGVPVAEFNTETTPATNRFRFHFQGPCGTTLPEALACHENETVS
Chain of UniProt P05067 (whole entry, looked up): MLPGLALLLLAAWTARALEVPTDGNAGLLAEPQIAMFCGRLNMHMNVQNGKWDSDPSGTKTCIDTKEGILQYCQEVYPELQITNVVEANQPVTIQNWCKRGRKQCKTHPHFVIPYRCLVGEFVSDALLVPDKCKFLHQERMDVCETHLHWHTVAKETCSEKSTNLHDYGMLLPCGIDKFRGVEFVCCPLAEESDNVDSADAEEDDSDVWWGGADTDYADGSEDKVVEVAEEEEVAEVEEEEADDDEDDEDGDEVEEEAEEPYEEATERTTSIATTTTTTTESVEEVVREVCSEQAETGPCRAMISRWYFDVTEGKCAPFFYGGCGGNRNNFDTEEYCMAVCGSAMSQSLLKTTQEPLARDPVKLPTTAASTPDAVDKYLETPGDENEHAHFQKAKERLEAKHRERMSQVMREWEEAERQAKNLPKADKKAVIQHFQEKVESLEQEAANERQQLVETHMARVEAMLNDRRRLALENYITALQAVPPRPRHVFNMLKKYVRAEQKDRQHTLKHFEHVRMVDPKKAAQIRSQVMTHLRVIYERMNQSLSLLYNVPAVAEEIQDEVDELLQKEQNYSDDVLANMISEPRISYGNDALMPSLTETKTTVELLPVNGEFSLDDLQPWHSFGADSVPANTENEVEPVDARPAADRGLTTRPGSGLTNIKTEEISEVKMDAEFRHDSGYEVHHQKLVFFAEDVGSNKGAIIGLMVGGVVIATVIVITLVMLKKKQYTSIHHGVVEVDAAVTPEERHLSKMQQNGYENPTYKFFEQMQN

Structure (SMILES) | target | assay | test system | setting | Kd
C[n+]1cc2cc3cc(ccc31)NC(=O)CCCCC(=O)Nc1ccc3c(c1)cc(c[n+]3C)C(=O)Nc1ccc3[nH]cc(c3c1)CCNC2=O | cKIT2 G-quadruplex DNA | microscale thermophoresis |  |  | 0.13 ± 0.01 µM
CCOC(=O)C1=CN([C@@H]2O[C@H](CO)[C@@H](O)[C@H]2O)C=CC1 | NAD-dependent protein deacylase sirtuin-5, mitochondrial (SIRT5, Homo sapiens, UniProt Q9NXA8) | isothermal titration calorimetry |  | added: NAD+ | 6.6 ± 1.5 µM
CO[C@H](C(=O)[C@@H](O)[C@@H](C)O)[C@@H]1Cc2cc3cc(O[C@H]4C[C@@H](O[C@H]5C[C@@H](O)[C@H](O)[C@@H](C)O5)[C@H](O)[C@@H](C)O4)c(C)c(O)c3c(O)c2C(=O)[C@H]1O[C@H]1C[C@@H](O[C@H]2C[C@@H](O[C@H]3C[C@](C)(O)[C@H](O)[C@@H](C)O3)[C@@H](O)[C@@H](C)O2)[C@H](O)[C@@H](C)O1 | human histone H2B | fluorescence quenching titration |  | pH 7.0, 25 °C, no Mg2+ | 1.7 ± 0.05 µM
CC[C@H](C)[C@H](NC(=O)[C@H](CCCNC(=N)N)NC(=O)NC[C@H](CCC(N)=O)NC(=O)NC[C@H](CC(C)C)NC(=O)NC[C@H](CCCNC(=N)N)NC(=O)NC[C@H](Cc1ccc2ccccc2c1)NC(=O)[C@H](CCCNC(=N)N)NC(=O)[C@H](CCC(=O)O)NC(C)=O)C(=O)N[C@@H](C)C(N)=O | Histone chaperone ASF1A (Homo sapiens, UniProt Q9Y294) | binding, ITC |  | pH 7.5 | 6.6 µM
CC(C)[C@@H]1NC(=O)[C@@H](NC(=O)[C@@H](N)Cc2c[nH]c3ccccc23)CSSC[C@@H](C(=O)N[C@@H](Cc2c[nH]c3ccccc23)C(N)=O)NC(=O)[C@H](CCCNC(=N)N)NC(=O)[C@H](CC(N)=O)NC(=O)[C@H]([C@@H](C)O)NC(=O)CNC(=O)[C@H](Cc2c[nH]c3ccccc23)NC(=O)[C@H](CC(=O)O)NC(=O)[C@H](CCC(N)=O)NC(=O)[C@H](Cc2c[nH]c3ccccc23)NC1=O | Complement C3 (Homo sapiens, UniProt P01024) | surface plasmon resonance |  | 25 °C, two-state reaction model | 0.76 µM
O=C(COCCCCc1ccccc1)N[C@@H](Cc1cn(CCNC(=O)c2ccc(S[C@@H]3O[C@H](CO)[C@H](O)[C@H](O)[C@H]3O)cc2)nn1)C(=O)NCCO | lecA | binding, SPR |  |  | 6.7 µM
CC[C@@H]1NC(=O)CNC(=O)[C@H](Cc2c[nH]c3ccccc23)NC(=O)[C@H](CC(=O)O)NC(=O)[C@H](CCC(N)=O)NC(=O)[C@H](Cc2c[nH]c3ccccc23)NC(=O)[C@H](C(C)C)NC(=O)[C@@H](NC(=O)[C@@H](NC(C)=O)[C@@H](C)CC)CSSC[C@@H](C(=O)N[C@H](C(N)=O)[C@@H](C)O)NC(=O)[C@H](CCCN=C(N)N)NC(=O)[C@H](Cc2c[nH]cn2)NC1=O | Complement C3, C3b fragment (Homo sapiens, UniProt P01024) | SPR |  | 25 °C | 0.252 ± 0.025 µM
OC(Cc1cc(-c2ccc(C(O)C(F)(F)F)s2)sc1-c1ccc(-c2sc(-c3ccc(C(O)C(F)(F)F)s3)cc2CC(O)C(F)(F)F)s1)C(F)(F)F (stereo not shown) | Amyloid-beta precursor protein, Aβ40/Aβ42 aggregates (APP, Homo sapiens, UniProt P05067) | Aβ40 Aβ42 aggregate binding, fluorescence |  | 200 min aggregation, Aβ40:Aβ42 9:1 | 2.1 µM
O=P(O)(O)O[C@@H]1[C@@H](O)[C@H](O)[C@H](O)[C@H](O)[C@H]1OP(=O)(O)O | Inositol 1,4,5-trisphosphate-gated calcium channel ITPR1, IP3-binding core (Itpr1, Rattus norvegicus, UniProt P29994, R504Q) | binding, 3H-IP3 competition |  | IP3-binding core IBC^R504Q | 0.624 µM
OC[C@H]1O[C@@H](OCc2cn([C@@H]3O[C@H](CO)[C@@H](n4cc(CCCCc5cn([C@H]6[C@H](O)[C@@H](O)[C@H](n7cc(CO[C@@H]8O[C@H](CO)[C@H](O)[C@H](O)[C@H]8O)nn7)O[C@@H]6CO)nn5)nn4)[C@H](O)[C@H]3O)nn2)[C@H](O)[C@@H](O)[C@H]1O | lecA | binding, ITC |  | pH 7.5 | 0.013 µM and 0.012 to 0.013 µM
N=C(N)NCCC[C@H](NC(=O)[C@H](CCCNC(=N)N)NC(=O)[C@H](CC(N)=O)NC(=O)[C@H](CCCNC(=N)N)NC(=O)[C@@H]1CCCN1C(=O)[C@H](CCCCN)NC(=O)[C@H](CCCCN)NC(=O)[C@H](CCC(N)=O)NC(=O)[C@H](CC(=O)O)NC(=O)[C@@H](N)Cc1c[nH]c2ccccc12)C(=O)O | Neuropilin-1 (NRP1, Homo sapiens, UniProt O14786) | binding, ITC |  | pH 7.4 | 33 µM
O=C(COCc1ccccc1)N[C@@H](Cc1cn(CCNC(=O)c2ccc(S[C@@H]3O[C@H](CO)[C@H](O)[C@H](O)[C@H]3O)cc2)nn1)C(=O)NCCO | lecA | binding, SPR |  |  | 6 µM
CC[C@H](C)[C@@H]1NC(=O)[C@@H]2CCCN2C(=O)[C@H](Cc2c[nH]c3ccccc23)NC(=O)[C@H](CO)NC(=O)[C@H](Cc2c[nH]c3ccccc23)NC(=O)[C@H](CC(N)=O)NC(=O)[C@H](CCCCN)NC(=O)[C@H](CCSC)NC(=O)[C@@H]2CSCCC(=O)N3CN(CN(C3)C(=O)CCSC[C@H](NC(=O)[C@H](C)N)C(=O)N3CCC[C@H]3C(=O)N[C@@H](Cc3ccccc3)C(=O)NCC(=O)N2)C(=O)CCSC[C@@H](C(=O)N[C@H](C(=O)N[C@@H](CC(N)=O)C(=O)N[C@@H](CCCCN)C(=O)N(C)CC(=O)N(C)CC(=O)N(C)CC(=O)N(C)CC(=O)N(C)CC(=O)N(C)CC(=O)N[C@@H](CCCCNC(=O)c2ccc(C(=O)O)c(-c3c4ccc(=O)cc-4oc4cc(O)ccc34)c2)C(N)=O)[C@@H](C)O)NC(=O)[C@H](Cc2c[nH]c3ccccc23)NC1=O | Nectin-4 extracellular domain (cynomolgus monkey) | binding, fluorescence polarization |  |  | 0.0492 µM
C[C@H](N)C(=O)N[C@@H](CCCNC(=N)N)C(=O)N[C@H](C(=O)N[C@@H](CCCC[N+](C)(C)C)C(=O)N[C@@H](CCC(N)=O)C(=O)N[C@H](C(=O)N[C@@H](C)C(=O)N[C@@H](CCCNC(=N)N)C(=O)N[C@@H](CCCCN)C(=O)N[C@@H](CO)C(=O)N[C@H](C(=O)NCC(=O)NCC(=O)N[C@@H](CCCCN)C(=O)N[C@@H](C)C(=O)O)[C@@H](C)O)[C@@H](C)O)[C@@H](C)O | Histone-lysine N-methyltransferase 2A, PHD3-bromodomain cassette (KMT2A, Homo sapiens, UniProt Q03164, del1666-1702) | binding, isothermal titration calorimetry |  | pH 7.5, 25 °C, coexpressed protein complex, added: H3K4me peptide | 4.3 µM
CC1(C)[C@@H](O)CC[C@]2(C)[C@H]3C(=O)C=C4[C@@H]5C[C@@](C)(C(=O)NCCCN)CC[C@]5(C)CC[C@@]4(C)[C@]3(C)CC[C@@H]12 | Serine hydroxymethyltransferase, mitochondrial (SHMT2, Homo sapiens, UniProt P34897) |  |  |  | 2.14 µM
C=C1C(=O)O[C@@H]2[C@H]3C(CO)=CC(=O)C3=C(C)C[C@H](OC(=O)Cc3ccc(O)cc3)[C@@H]12 | Alpha-glucosidase MAL12 (MAL12, Saccharomyces cerevisiae S288c, UniProt P53341) | binding, fluorescence quenching |  | 30 min, 310 K | 133 µM
C=CCO[C@@H]1C[C@@H](C(=O)N[C@@H](CCCNC(=N)N)C(=O)N[C@@H](CCCNC(=N)N)C(=O)N[C@@H](CCCNC(=N)N)C(N)=O)N(C(=O)[C@@H]2CCCN2C(=O)[C@@H](NC(=O)[C@@H]2C[C@H](OCC=C)CN2C(=O)[C@@H]2CCCN2C(=O)[C@@H]2CCCN2C(=O)[C@@H](NC(C)=O)C(C)C)C(C)C)C1 | Growth factor receptor-bound protein 2, N-terminal SH3 domain (GRB2, Homo sapiens, UniProt P62993) | binding, tryptophan fluorescence | PBS | 21 °C | 12.6 ± 0.98 µM
O=c1c(Br)c2oc3c(CN(Cc4ccccn4)Cc4cnccn4)c(O)c(Cl)cc3nc-2c2ccccc12 | zinc ion | fluorescence titration |  | pH 7.0, 25 °C | 0.0007 µM
CC1=CC(C)(C)Nc2c(C(=O)O)cc(C)cc21 | E3 ubiquitin-protein ligase CBL-C (Homo sapiens, UniProt Q9ULV8) | binding, NMR |  |  | 1200 µM
O=C(Cc1ccccc1O)N[C@@H](Cc1cn(CCNC(=O)c2ccc(S[C@@H]3O[C@H](CO)[C@H](O)[C@H](O)[C@H]3O)cc2)nn1)C(=O)NCCO | lecA | binding, SPR |  |  | 9.8 µM
CC[C@H](C)[C@@H]1NC(=O)[C@H](Cc2ccc(O)cc2)NC(=O)[C@@H]2CCCN2C(=O)[C@H](CCCNC(=N)N)NC(=O)[C@@H](Cc2c[nH]c3ccccc23)NC(=O)CSC[C@@H](C(=O)NCC(N)=O)NC(=O)[C@H](C(C)C)NC(=O)[C@H]([C@@H](C)CC)NC(=O)[C@H](CC(C)C)NC(=O)[C@H](CCCNC(=N)N)NC(=O)CNC(=O)[C@H]([C@@H](C)O)NC(=O)[C@H](Cc2c[nH]c3ccccc23)NC(=O)[C@H](CCCNC(=N)N)NC(=O)[C@H](CCC(=O)O)NC1=O | Plexin-B1 (Plxnb1, Mus musculus, UniProt Q8CJH3) | surface plasmon resonance |  |  | 0.044 µM
Cc1cc(C)cc(COc2cc3c(cc2OCc2cc(C)cc(C)c2)[C@@H]2C[C@](O)(Cc4cn(Cc5ccc(F)cc5)nn4)C[C@H](C)N2CC3)c1 (single isomer, unassigned) | Rab GDP dissociation inhibitor beta (Homo sapiens, UniProt P50395) | binding, BLI |  |  | 36 µM

For quick reference, copied from above:
Structure (SMILES) | target | assay | test system | setting | Kd
O=C(COCCCCc1ccccc1)N[C@@H](Cc1cn(CCNC(=O)c2ccc(S[C@@H]3O[C@H](CO)[C@H](O)[C@H](O)[C@H]3O)cc2)nn1)C(=O)NCCO | lecA | binding, SPR |  |  | 6.7 µM
